Experimental data gathered from unrelated publications.
A part holds a random share of what one study measured. Positions count from the first letter of the parent shown.

Set 1 — technique: protein-binding microarray; molecule type: double-stranded DNA, one strand shown; sample: in vitro; concentration: 0.8 µM; setting: whole 60-bp probe, no competitor; reading: higher = stronger binding
Target: Centromere-binding protein 1, full length, N-terminal tag (CBF1, Saccharomyces cerevisiae, UniProt P17106, residues 1-351)
UniProt P17106, sequence (whole entry, looked up): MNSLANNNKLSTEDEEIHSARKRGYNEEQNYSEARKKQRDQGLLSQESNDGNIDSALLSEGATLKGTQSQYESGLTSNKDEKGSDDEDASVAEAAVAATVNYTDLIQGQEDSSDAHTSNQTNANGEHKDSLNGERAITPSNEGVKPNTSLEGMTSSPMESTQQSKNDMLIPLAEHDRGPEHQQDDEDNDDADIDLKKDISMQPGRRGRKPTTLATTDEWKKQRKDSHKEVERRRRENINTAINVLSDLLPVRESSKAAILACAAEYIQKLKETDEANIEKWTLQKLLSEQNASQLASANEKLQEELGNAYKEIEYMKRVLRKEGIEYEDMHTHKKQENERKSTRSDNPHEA
Strand | fluorescence intensity
CTATTATCTTGGCAAAACGTGGGGCTGGAACTTTTCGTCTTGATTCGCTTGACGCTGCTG | 616 a.u.
GAATAAGAAATATAAAAGGTGACTTGGCTTATATAGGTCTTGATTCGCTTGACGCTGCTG | 514 a.u.
TGTACGAAGCTATTTTATCACATTATAGTAGTTAGGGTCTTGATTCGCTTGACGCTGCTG | 599 a.u.
GAAGTATAAAAGATACACGCCACTGGTTGAATGTAGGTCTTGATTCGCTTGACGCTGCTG | 578 a.u.
TGTACGAAGCTATGTAGTGTGACTATAGTAGTTAGGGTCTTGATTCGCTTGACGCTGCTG | 591 a.u.
CTATCTACGTTCTCAATGGTGGTGTTGAGCTCTTTCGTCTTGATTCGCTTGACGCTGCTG | 534 a.u.
CTAACACCCATTCATCACGTGTAATTGGACATCTTCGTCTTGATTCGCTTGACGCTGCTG | 5870 a.u.
GAAAAAATGTGATTTCATATCACGAAGTTTTTTTAGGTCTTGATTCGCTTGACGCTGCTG | 716 a.u.
TGTACGAAGCTATACAAACACGTTATAGTAGTTAGGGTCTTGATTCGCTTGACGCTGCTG | 581 a.u.
TGTACGAAGCTATCAAGCATGACTATAGTAGTTAGGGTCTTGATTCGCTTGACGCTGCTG | 556 a.u.
GAACGCAAACGAACACACGTTTTGTTCACTCCTTAGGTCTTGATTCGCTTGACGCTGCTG | 527 a.u.
CCTAACTACTATACCCACGTCATATAGCTTCGTACAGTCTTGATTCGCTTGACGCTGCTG | 558 a.u.
CTACTGCATAATTCTGATGCAATATCCAACAACTTCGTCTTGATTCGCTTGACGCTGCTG | 597 a.u.
TGTACGAAGCTATTGCGCGTGCATATAGTAGTTAGGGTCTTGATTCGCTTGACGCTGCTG | 661 a.u.
CTAGTTTTTTTAAACCATGTGCGAAGAAATTCTTTCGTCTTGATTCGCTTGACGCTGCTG | 1490 a.u.
CTATTTAGCGCGCGTGATATGGACATAGATGCATTCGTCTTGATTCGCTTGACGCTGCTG | 1990 a.u.
GAATCCTCGGAGAAACACGGGAATATTTGAAACTAGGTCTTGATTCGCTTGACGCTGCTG | 522 a.u.
TGTACGAAGCTATCACGTGGCACTATAGTAGTTAGGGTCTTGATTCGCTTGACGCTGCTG | 9250 a.u.
GAAGGTTTGCTCTACGACGTGGTTGGATTATATTAGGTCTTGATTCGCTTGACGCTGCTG | 501 a.u.

Set 2 — technique: universal PBM; molecule type: double-stranded DNA, one strand shown; sample: in vitro; concentration: not given; reading: higher = stronger binding
Target: Sal-like protein 4, full length isoform B (SALL4, Homo sapiens, UniProt Q9UJQ4-2, residues 1-616)
Setting: 8-mer, flanks averaged, mean of replicates
Strand | E-score
AAGTCAGC | -0.171
AAGTGTGA | 0.0184
AGCGGCTA | -0.201
CGAAATTC | 0.104
GCAAAGAA | -0.0445
ACAGTAAG | -0.0543
GCATAAAA | 0.263
CACATTCG | 0.0847
GAGATAGA | -0.0253
AAATGCCG | -0.0446
CCGTTTCC | -0.143
ATGGGACG | -0.17
AGGAGGGG | -0.223
AACAGGGG | -0.189
CCGGCAAA | -0.139
AAGAGCGA | -0.219
AGGTGAAA | 0.0748
TCAGTTAA | 0.107
ACACCCAT | 0.102
AACAACGT | 0.0244
GGGCAAGA | -0.0259
AGTTTTAC | 0.0891
CAATTCCA | -0.00809
ACGTGTCG | -0.0286
CCGGTGTA | -0.14

Set 3 — target: CCNB1, cyclin fold, Cln2 fusion (human); technique: yeast growth competition, sequencing; sample: yeast; setting: weak parent motif; reference: not given; reading: higher = stronger binding
Parent: CDC25A docking peptide (human); PPHRRRLLFACSP
Change | normalised enrichment score
P1K | 1.24
L8A | 0.77
R5S | 0.85
L7Y | 0.515
P2G | 0.88
P13R | 0.624
R6W | 0.884
A10L | 0.136
P2H | 0.851
A10Q | 0.698
P2C | 1.27
H3I | 0.755
L8M | 0.41
F9I | 0.72
P1R | 0.777
R5K | 0.73
P13D | 1.23
R6M | 1.41
H3P | 0.224
P1G | 0.653
R6N | 0.786
S12D | 0.926
H3V | 2.16
R6Y | 0.114
R5L | 0.685

Set 4 — technique: RNA Bind-n-Seq; molecule type: RNA; sample: in vitro; concentration: 1 µM; setting: whole 134-nt RNA, ends assumed; with: 150 mM KCl; reference: input library; reading: higher = stronger binding
Target: Ras GTPase-activating protein-binding protein 1, RRM domain (G3BP1, Homo sapiens, UniProt Q13283)
UniProt Q13283, sequence (whole entry, looked up): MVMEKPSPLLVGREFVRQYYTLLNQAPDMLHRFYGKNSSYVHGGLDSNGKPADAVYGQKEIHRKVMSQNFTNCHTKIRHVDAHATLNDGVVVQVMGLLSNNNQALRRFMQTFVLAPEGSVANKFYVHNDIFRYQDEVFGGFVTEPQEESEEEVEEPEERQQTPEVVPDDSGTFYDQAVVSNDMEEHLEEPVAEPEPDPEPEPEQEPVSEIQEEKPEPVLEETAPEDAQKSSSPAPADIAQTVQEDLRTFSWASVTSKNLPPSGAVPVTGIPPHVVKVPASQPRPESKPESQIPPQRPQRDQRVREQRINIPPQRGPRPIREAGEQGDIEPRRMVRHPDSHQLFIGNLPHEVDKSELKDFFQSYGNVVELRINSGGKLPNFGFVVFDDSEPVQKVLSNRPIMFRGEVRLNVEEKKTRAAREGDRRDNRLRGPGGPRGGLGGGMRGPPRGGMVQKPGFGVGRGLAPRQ
Strand | log2 enrichment
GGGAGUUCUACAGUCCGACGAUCAGUCCUGUGCUACACAUCGUAUGUACCGAAUCGGGGAGGGGAGGGGAAAAAAAGGGGAAAGUAUUAUGUUACGCCGUUCGGAUCUGCACUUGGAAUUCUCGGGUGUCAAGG | 0.763
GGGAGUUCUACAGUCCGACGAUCUGUGCUACACAUCGUAUGUACCGAAUCGGGGAAAAAGGGGUUUUUUUGGGGUUUUUUUGGGGAAAGUAUUAUGUUACGCCGUUCGGAUCUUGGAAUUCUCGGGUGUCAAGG | 1.17
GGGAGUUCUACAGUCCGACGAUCAGUCCUGUGCUACACAUCGUAUGUACCGAAUCGGGGAAAAGGGAAAAGGGGAAAAGGAAAGUAUUAUGUUACGCCGUUCGGAUCUGCACUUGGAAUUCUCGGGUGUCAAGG | -0.0641
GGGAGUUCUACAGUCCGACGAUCCAAGUCCUGUGCUACACAUCGUAUGUACCGAAUCGGUUUUUGGAGGAAAAAAAGGAAAGUAUUAUGUUACGCCGUUCGGAUCUGCACUUCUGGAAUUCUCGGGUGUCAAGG | -0.201
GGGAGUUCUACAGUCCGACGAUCUGGCCCUGGUGGCAUGCGGGGAGGAAGAGGUGGCCUCAUGGAUCGUGGUGGUCCCGGUGGAAUGUUCAGAGGGGGCCGUGGUGGAGACAGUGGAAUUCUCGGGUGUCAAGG | 2.47
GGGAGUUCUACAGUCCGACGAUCGCAGGAAGUAAAAACAAAUGGAAAUGCUUCGGACAGUGGCAGGGGUGGGGGUUGCUAAGGAAAGGGUGGGAUGGGAGUGGGUAAAGAGUUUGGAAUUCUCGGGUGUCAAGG | 0.97
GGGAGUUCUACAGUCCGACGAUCACCAUGCAGGUGGGCAAAAUUGGGAAGUGGGGCAAGGGGGGGAUAGGGAGGGGGGUAACACUUUGGGAACAGGUGGUCCCAGGUCGUUUCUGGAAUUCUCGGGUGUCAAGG | -0.57
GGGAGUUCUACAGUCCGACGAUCACCAUGCAGGUGGGCAUCUUUGGGAAGUGGGGCAAGGGGGGGAUAGGGAGGGGGGUAACACUUUGGUAACAGGUGGUCCCAGGUCGUUUCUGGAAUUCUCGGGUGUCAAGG | 0.845
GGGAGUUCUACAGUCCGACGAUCCAAGUCCUGUGCUACACAUCGUAUGUACCGAAUCGGGCCCGGGGCCCGGGCCCGGAAAGUAUUAUGUUACGCCGUUCGGAUCUGCACUUCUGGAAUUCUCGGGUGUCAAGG | -0.722

Set 5 — technique: protein binding microarray; molecule type: double-stranded DNA, one strand shown; sample: in vitro; concentration: not given; reference: not given; reading: higher = stronger binding
Target: Histone acetyltransferase KAT6A, both winged helices, GST fusion (KAT6A, Homo sapiens, UniProt Q92794, residues 1-181)
Setting: 8-mer, flanks averaged, mean of 2 arrays, mostly near background
Residues (chain): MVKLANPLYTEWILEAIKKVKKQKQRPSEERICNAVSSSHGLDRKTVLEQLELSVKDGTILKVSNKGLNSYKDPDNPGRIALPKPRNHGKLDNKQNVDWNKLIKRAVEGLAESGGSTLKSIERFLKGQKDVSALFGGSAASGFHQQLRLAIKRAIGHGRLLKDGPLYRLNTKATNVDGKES
Strand | E-score
AGCTTGGC | -0.00605
GAATCTCC | -0.0247
CAGGCTGG | -0.143
CGGCTGCC | 0.216
CCCGACGA | 0.0979
AAAAAGTC | -0.0344
TGGGTAAA | -0.144
ACTTTGAT | -0.193
AAGCACTG | -0.181
AGATAGAA | -0.186
CGTACAGA | -0.0768
AACTCCTT | -0.0226
AGAGCAAA | -0.241
CATAACCG | 0.0625
GCACTACC | 0.0495
AAGTAGGG | -0.268
GTTGACTA | -0.103
AACACCGT | 0.217
CCCTTTAC | -0.04
CCTGAACA | -0.0553
ACGAGGCA | -0.136
GATAGAAC | -0.122
CCTACAGA | -0.203
TCTGATCA | -0.123
ATCCACAC | -0.302

Set 6 — target: CEP164, C-terminal peptide (human); technique: DHFR complementation, deep sequencing; sample: yeast; reference: wild type; reading: higher = weaker binding
Setting: single substitutions, model-inferred values
Parent: PDZK1, PDZ domain 2 (human); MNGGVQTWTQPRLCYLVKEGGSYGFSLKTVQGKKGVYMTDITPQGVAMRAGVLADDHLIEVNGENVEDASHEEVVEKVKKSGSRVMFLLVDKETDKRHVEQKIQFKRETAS; partner HNRVKVYRF
Change | binding free energy change [kcal/mol]
A69L | -0.437
M38G | 1.58
P43G | 0.641
S22Q | 0.239
A50K | 0.479
K77H | 0.331
E108N | 0.738
L53H | 0.0661
D91M | 0.141
P11Y | 0.378
N62V | 1.71
L16R | 1.39
T39M | 1.3
K79Q | 0.238

Mixed results
Substance | target | assay | system | conditions | scale | measurement | value
PhoQ, residues 284 288 289 292 302 303 GASLAW | PhoP, residues 12 14 15 18 19 SYFRT (Escherichia coli, UniProt P23836) | Sort-seq, refers to: YFP reporter | E. coli | PhoQ-PhoP variant library, with: 10 µM Mg2+ | reference: high Mg2+ state, higher = stronger signaling | fold induction | 0.738

For quick reference, copied from above (set 5):
Strand | E-score
CCCGACGA | 0.0979
AAAAAGTC | -0.0344
TGGGTAAA | -0.144
ACTTTGAT | -0.193
AAGCACTG | -0.181
AGATAGAA | -0.186
CGTACAGA | -0.0768
AACTCCTT | -0.0226
AGAGCAAA | -0.241
CATAACCG | 0.0625
GCACTACC | 0.0495
AAGTAGGG | -0.268
GTTGACTA | -0.103
AACACCGT | 0.217
CCCTTTAC | -0.04
CCTGAACA | -0.0553
ACGAGGCA | -0.136
GATAGAAC | -0.122
CCTACAGA | -0.203
